Assay results from different studies.
Every numbered part comes from another study and shows a few of its results, in no order.

Sample 1
Organism: SARS-CoV-2
Read-out: cytopathic effect
Cell line: Vero E6
Concentration: 10 µM
`Nc1ccc2cc3ccc(N)cc3nc2c1` gave an inhibition of 19.1%.
For `CCOC(=O)Cc1ccc(-c2ccccc2)cc1`, the inhibition was -5.7%.
For `O=C1C=CC(=O)C2=C1C1c3ccccc3C2c2ccccc21`, the inhibition was 3.2%.

Sample 2
Cell line: HEK-293T/ACE2
Concentration: concentration not given
Time: 16 (unit not given)
Baseline: vehicle
`N#C[C@@H]1C[C@@H]2C[C@@H]2N1C(=O)[C@@H](N)C12CC3CC(CC(O)(C3)C1)C2` has a viability of 104%.
`CC(C)n1c(/C=C/C(O)CC(O)CC(=O)O)c(-c2ccc(F)cc2)c2ccccc21` (stereo not shown) gave a viability of 106%.
`CCCCCCOC(=O)NC(=N)c1ccc(NCc2nc3cc(C(=O)N(CCC(=O)OCC)c4ccccn4)ccc3n2C)cc1` gave a viability of 95%.

Sample 3
Target: RNA binding protein fox-1 homolog 2, RRM domain, GST-SBP tag (RBFOX2, Homo sapiens, UniProt O43251-10, residues 100-194)
Method: RNA Bind-n-Seq
Form: RNA
Sample: in vitro
Concentration: 365 nM
Setting: natural RNA segment, single round, ends assumed
Baseline: no-protein control
Direction: higher = stronger binding
Shared flanks, not repeated: GGGAGUUCUACAGUCCGACGAUC … UGGAAUUCUCGGGUGCCAA
Residues (chain): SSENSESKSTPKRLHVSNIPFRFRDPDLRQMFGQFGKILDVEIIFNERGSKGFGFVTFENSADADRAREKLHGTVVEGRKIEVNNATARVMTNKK
`AGUAUGAGCCCAUCUCACUGGGCUAUCUGACUCUCCACCCUCCUUGUUAGUCUCUGAGGAACAGUGCAACUCCUUCGAACAUGAUUUAGAAAGAGGGCAUUCAUGCAUAG`: “RBNS enrichment (R)” 0.41.
`UGAGCUACUGUUGGCUGCUGCCCUCCUUCCCAGUGAAAGGUACAGAGCAAUAAGCAUCAUGCAUCUCCCCGAUUCCCACUAGCACCCCUCUGCCUCUGGCUCAGGUUGCU` — result for “RBNS enrichment (R)”: 0.941.
For `CCCCAUCUGUAAAAUGGGCUGAUUGGCCUCCACGGUCAGAGCGGCCAUCUGGCUGUGCCAUCCUGCAUUUUUAGGAAUGGAAAGCAGGCCUCUGAGGCAGUGGACAGGAA`, “RBNS enrichment (R)” read 1.66.
For `CCAGAGCACCCCAGUCUGUGACAAGGAGGACUGGCAUUGAGGGACACAGAACAGUGAAGGCUACAGGUCAUCAUCAAAGUCCUCUCCGGUUGUAAAGAGGUUGUGCAGUU`, “RBNS enrichment (R)” read 0.418.
`GGAGCAGCAGGCCUGGGGCAAGGAAGGAAGGGGGUGCACACAGGAGAAGAAACAUUCCAAAAUCAGGGCCUCCCUGUUCUUUCCUCCCCAUCCCUAGCUCCUGCAAGAGA`: “RBNS enrichment (R)” 0.281.
For `CUGUCUGCAAACAGUGUCAGGAUCAGAAUCAAGGACAGGAGGCAAAGUGAAGUUCACACCCAGCACCCACAACCUUUAUCAGUCCUCCCGACUCCCCACCCUUUUGCAUU`, “RBNS enrichment (R)” read 1.68.
For `GAAUUUGUCUGUGUACAACUCUAGAUGGAGUGGGCCAGCAGUAGCUGCCAGUCUUUCUCCCCUGCAGCUUCCUCUGCUUCUGGAAUGAACCAUGUAUCCUGGAGACCCUC`, “RBNS enrichment (R)” read 0.217.
For `CCUCAGGUGAUCUGCCCACCUCAGCCUCCCGAAGUGCUGGGAUUACAGGUGUGAGCCACCGCACCCGGCUCUAUUUAGCUUUUUAAAAAUUAUUUCCUUUCAAGGGCCCU`, “RBNS enrichment (R)” read 0.461.

Sample 4
Target: Replicase polyprotein 1ab, nsp13 helicase (rep, Severe acute respiratory syndrome coronavirus 2, UniProt P0DTD1)
Mode: inhibitor
Concentration: 20 µM
For `COc1cc(Br)c(S(=O)(=O)Nc2ccc(Cl)c(O[C@@H]3CCN(C)C3)c2)cc1OC`, the inhibition was 3.67%.
The inhibition of `Nc1ncnc2c1ncn2CCOCP(=O)(O)O` is reported as -3.93%.
With `O=C1C=Cc2cc(Br)ccc2C1=O` the inhibition was 100%.
With `CCCCc1oc2ccc(NS(C)(=O)=O)cc2c1C(=O)c1ccc(OCCCN(CCCC)CCCC)cc1` the inhibition was 1.47%.
`C[C@@H]1NC(C)(C)CO[C@@]1(O)c1cccc(Cl)c1` has an inhibition of 6.92%.
`CC[C@H](CO)Nc1nc(Nc2cccc(-c3ccccn3)c2)c2ncn(C(C)C)c2n1` has an inhibition of 11%.
`COc1cc2c(cc1OC)[C@@H]1Cc3ccc(OC)c(OC)c3CN1CC2` gave an inhibition of 1.42%.
With `CN1C(=O)CC[C@H]1c1cccnc1` the inhibition was 2.72%.
With `O=c1c(O)c(-c2ccc(O)cc2)oc2cc(O)cc(O)c12` the inhibition was 3.36%.
With `Cc1cccc(Nc2ccccc2C(=O)O)c1C` the inhibition was 4.99%.
The inhibition of `CN1CCc2nc(C(=O)N[C@@H]3C[C@@H](C(=O)N(C)C)CC[C@@H]3NC(=O)C(=O)Nc3ccc(Cl)cn3)sc2C1` is reported as 4.08%.
`O=C(O)CCC(=O)O` has an inhibition of 2.14%.
The inhibition of `Cc1[nH]c2ccc(F)cc2c1-c1nc2c3cccnc3c3ncccc3c2[nH]1` is reported as 8.46%.
For `CN[C@@H]1[C@H](O)[C@H](NC)[C@H]2O[C@@]3(O)C(=O)C[C@@H](C)O[C@H]3O[C@@H]2[C@H]1O`, the inhibition was 2.59%.
For `O=C(CCCN1CCC(n2c(=O)[nH]c3ccccc32)CC1)c1ccc(F)cc1`, the inhibition was 6.76%.
For `COC(=O)c1cc(OC)c2c(c1-c1c(CO)cc(OC)c3c1OCO3)OCO2`, the inhibition was 3.3%.
`Oc1c(Cl)cc(Cl)cc1Sc1cc(Cl)cc(Cl)c1O` has an inhibition of 5.61%.
`O=C(O)Cc1ccc(CCNS(=O)(=O)c2ccc(Cl)cc2)cc1` gave an inhibition of 6.6%.
The inhibition of `CN1C(=O)C[C@@H](C(=O)N[C@@H](Cc2c[nH]cn2)C(=O)N2CCC[C@H]2C(N)=O)NC1=O` is reported as -1.71%.
`CC(C)=CCC[C@]1(C)C=Cc2c(O)c3c(c(CC=C(C)C)c2O1)O[C@]12C(=C[C@@H]4C[C@H]1C(C)(C)O[C@@]2(C/C=C(/C)C(=O)O)C4=O)C3=O` gave an inhibition of 21.6%.
With `C#C[C@]1(O)CC[C@H]2[C@@H]3CCc4cc(O)ccc4[C@H]3CC[C@@]21C` the inhibition was 2.15%.
The inhibition of `c1ccc(-c2ccc(C(c3ccccc3)n3ccnc3)cc2)cc1` (stereo not shown) is reported as 0.33%.
For `CC1(C)S[C@@H]2[C@H](NC(=O)[C@H](NC(=O)N3CCNC3=O)c3ccccc3)C(=O)N2[C@H]1C(=O)O`, the inhibition was -4.89%.
`COC(=O)C1=C(C)NC(C)=C(C(=O)OC(C)(C)CN(C)CCC(c2ccccc2)c2ccccc2)C1c1cccc([N+](=O)[O-])c1` (stereo not shown) has an inhibition of 5.67%.
The inhibition of `Oc1cc(O)c(Cl)cn1` is reported as 2.16%.

Sample 5
Target: Ras GTPase-activating protein-binding protein 1, full length (G3BP1, Homo sapiens, UniProt Q13283)
Chain of UniProt Q13283 (whole entry, looked up): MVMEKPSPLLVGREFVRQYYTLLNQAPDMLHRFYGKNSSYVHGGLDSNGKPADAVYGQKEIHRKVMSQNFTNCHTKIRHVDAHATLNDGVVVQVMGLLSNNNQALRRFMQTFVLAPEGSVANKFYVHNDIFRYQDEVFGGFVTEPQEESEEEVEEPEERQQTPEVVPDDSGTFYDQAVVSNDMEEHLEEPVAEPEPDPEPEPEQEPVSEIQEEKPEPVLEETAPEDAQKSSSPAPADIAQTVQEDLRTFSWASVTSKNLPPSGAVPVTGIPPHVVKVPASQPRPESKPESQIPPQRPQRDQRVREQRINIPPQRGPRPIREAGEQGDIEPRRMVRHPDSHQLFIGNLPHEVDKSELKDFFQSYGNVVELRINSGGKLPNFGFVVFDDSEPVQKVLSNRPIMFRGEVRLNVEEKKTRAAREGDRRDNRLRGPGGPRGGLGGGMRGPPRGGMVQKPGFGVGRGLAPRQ
Method: RNA Bind-n-Seq
Form: RNA
Sample: in vitro
Concentration: 200 nM
Setting: whole 134-nt RNA, ends assumed
With: 150 mM LiCl
Baseline: input library
Direction: higher = stronger binding
Library: 7-deaza-guanosine replaces G
Shared flanks, not repeated: GGGAGUUCUACAGUCCGACGAUC … UGGAAUUCUCGGGUGUCAAGG
`UGGGAGGUGGAUUUUGUUUAUUUUUUUAGCUCAUUUCCAGGGGUGGGAAUUUUUCUUUAAUAUGUGUCAUGAAUAAAGUUGUUUUUGAAA` gave a log2 enrichment of -0.88.
For `CCUGUGCUACACAUCGUAUGUACCGAAUCGGGGUUUUUUUGGGGAAAAAGGGGAAAGGGGAAAGUAUUAUGUUACGCCGUUCGGAUCUGC`, the log2 enrichment was -0.307.
`AAAAGACAACACGCACCCACACAGACACAGAGGGAAGGGGUUGGGAUGGGGACAGGGUGCACAGCAGGGCGGGGUAGGACCCCAGCCCCU` has a log2 enrichment of 0.247.
For `UCCUCAAGUCCUGUGCUACACAUCGUAUGUACCGAAUCGGCGGCGGGCGGGAAAGUAUUAUGUUACGCCGUUCGGAUCUGCACUUCCAGC`, the log2 enrichment was 1.11.
For `UGGCCCUGGUGGCAUGCGGGGAGGAAGAGGUGGCCUCAUGGAUCGUGGUGGUCCCGGUGGAAUGUUCAGAGGUGGCCGCGGUGGAGACAG`, the log2 enrichment was 0.0556.
The log2 enrichment of `UCAAGUCCUGUGCUACACAUCGUAUGUACCGAAUCGGGGCCGGGCCGGGGCCGGGAAAGUAUUAUGUUACGCCGUUCGGAUCUGCACUUC` is reported as 0.058.
For `CUCAAGUCCUGUGCUACACAUCGUAUGUACCGAAUCGGUGGAGGAAAAAAAGGAAAGUAUUAUGUUACGCCGUUCGGAUCUGCACUUCCA`, the log2 enrichment was -0.27.
`UGGCCCUGGUGGCAUGCGGGGAGGAAGAGGUGGCCUCAUGGAUCGUGGUGGUCCCGGUGGAAUGUUCAGAGGUGGCCGUGAUGGAGACAG` has a log2 enrichment of -0.218.

Sample 6
Target: Interferon regulatory factor 3, full length, phosphomimetic (IRF3, Homo sapiens, UniProt Q14653, residues 1-427, S386D/S396D/S398D/S402D/T404D/S405D)
Method: protein-binding microarray
Form: double-stranded DNA, one strand shown
Sample: in vitro
Concentration: 2540 nM top
Setting: 60-bp whole probe
With: salmon DNA 0.4 mg/ml
Baseline: random background probes
Direction: higher = stronger binding
Shared flanks, not repeated: GCCTAGCAC … GTCTTGATTCGCTTGACGCTGCTG
Construct (chain): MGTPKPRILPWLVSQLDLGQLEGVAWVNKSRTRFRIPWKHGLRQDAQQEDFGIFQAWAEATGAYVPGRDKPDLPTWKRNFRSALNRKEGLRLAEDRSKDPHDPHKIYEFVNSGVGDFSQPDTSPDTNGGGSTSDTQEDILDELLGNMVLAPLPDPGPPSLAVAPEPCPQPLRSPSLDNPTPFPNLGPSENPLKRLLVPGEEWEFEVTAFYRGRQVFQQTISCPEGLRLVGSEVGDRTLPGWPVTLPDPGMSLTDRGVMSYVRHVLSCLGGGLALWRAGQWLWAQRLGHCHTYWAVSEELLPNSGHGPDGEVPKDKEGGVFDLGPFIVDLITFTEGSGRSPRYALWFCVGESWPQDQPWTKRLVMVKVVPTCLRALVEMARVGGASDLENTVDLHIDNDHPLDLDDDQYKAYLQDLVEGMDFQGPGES
For `TTAGGACTGGGACTTGGTTAGTGCTAG`, “fitted relative affinity” read -0.831 z-score.
`CGACATTTTTATTTGCCTTAGTGCTAG`: “fitted relative affinity” 0.72 z-score.
`TCACCTCCCCCTCTGCCACTGTGCTAG`: “fitted relative affinity” 0.191 z-score.
Under “fitted relative affinity”, `TTGGGTATCGGGACTGGGTTAGTGCTA` is recorded as 0.35 z-score.
`TTAGGTTTCGGACTAGGTTAGTGCTAG` — result for “fitted relative affinity”: 5.18 z-score.
Under “fitted relative affinity”, `AAGAAGCTTCCTCTCTGCCAGTGCTAG` is recorded as -0.2 z-score.
`TTAGAACTGAGTTGCGATTAGTGCTAG` — result for “fitted relative affinity”: 0.408 z-score.
Under “fitted relative affinity”, `GACGGTTTCCTTTCCCGGACGTGCTAG` is recorded as 10.1 z-score.
